Results gathered from unrelated publications.
A part holds a random share of what one study measured. Substitutions count along the parent as printed.

Sample 1
Target: RNA binding protein fox-1 homolog 2, RRM domain, GST-SBP tag (RBFOX2, Homo sapiens, UniProt O43251-10, residues 100-194)
Method: RNA Bind-n-Seq
Molecule type: RNA
Medium: in vitro
Tested at: 365 nM
Notes: natural RNA segment, single round, ends assumed
Reference: no-protein control
Direction: higher = stronger binding
Construct (chain): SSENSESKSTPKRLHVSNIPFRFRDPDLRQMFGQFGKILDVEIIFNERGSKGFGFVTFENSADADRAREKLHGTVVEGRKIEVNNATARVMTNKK
Sequence | RBNS enrichment (R)
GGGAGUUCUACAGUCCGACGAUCAGGCAUUACUCUUCCCUGCCUCACAUCAAGGUGCCAUUCAGGUAGUUGGCUCCCAGCUACUUAACGAUAAAAAUAUCACUUUCGUAUUUGUAUCAGAGAAACUUAAAAAAUGGAAUUCUCGGGUGCCAA | 0.583
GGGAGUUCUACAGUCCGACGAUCAAGGAAUUUAUUACAAUGUAUCUUUAUUAAAACAAAAGGGUGUAUAGUGUUCACAAACUGUGAAAAUAGUGUAAGAACUGUACAUUGUGAGCUCUGGUUAUUUUUCUCUUUGGAAUUCUCGGGUGCCAA | 0.422
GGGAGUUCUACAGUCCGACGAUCCCCCACUAAGCUGAAGGCCCCCUGGGGGAGGGGGAAGCAUGGUCCUUAUCAUCUGCCCUAUCUUGCCCCUUCCUGUGGAGUGGGCAGAAGGGCUCCCGGGAUCCUCAGAGUGGAAUUCUCGGGUGCCAA | 3.75
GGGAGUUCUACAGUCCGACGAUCAUGAGACGGCUUGUGUGUGAAAAGAUUUUGGAAAUUACACAGAUGUGGGCUUGUUAUUGGGAUGAAGACUGCUGGAAGGGACUCCUUGCUGUUUAUCUACUGCUUUGAGCUGGAAUUCUCGGGUGCCAA | 1.48
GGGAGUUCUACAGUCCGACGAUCUUGGUGUCAACCUUUUUCACUGAAUAAAAAUUUAACUGGGUUAAAAAAGAAAAACAAUGAAAAAAAAUAAAGACACCGCCAUCACCUAUUUAAAUAUCCACUGUGUGUGUUGGAAUUCUCGGGUGCCAA | 0.742
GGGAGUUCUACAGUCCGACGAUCUUGUAAAGUGUCCACUGCGCCGUUCGUUUAUUUCCCUCGAUUUUCUUCUUCCUCUCGCCUUCCUUCUUCGCAGCCCUCCUGUCCCGGUUCAGGCUUGCUGUCUCUUGUCCUGGAAUUCUCGGGUGCCAA | 1.68
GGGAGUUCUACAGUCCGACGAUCCACAUGAAACUCUGGGAUCCAGUGAAGGGUCCUGCUUGGUCUUGUUUUCAGAGUCUGUAACAUUGAAGCCCUCCAUCAGAUCUACCUAUUACUGCUGCUUUAGAGCAUGAUGGAAUUCUCGGGUGCCAA | 0.722
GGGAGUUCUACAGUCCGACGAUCUUAGCUUUCUGUUAAAUACUUGCAGAAAAAAAAAAUAGCAAGUACAAUAUGACAGUAGUACAACAACCUGUGCCCAAAACACUGACAAGAAAUACAGAGUAAAGCUAAAAUGGAAUUCUCGGGUGCCAA | 0.328
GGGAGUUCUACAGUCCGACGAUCCAUCAAAAUGUUACUGCCGGUUGAAAGCCAUGAUCAUGUGCAAAGGAUGUGGAGCUUUCUGCCAUGAUGAUUGCAUUGGCCCCUCCAAACUCUGUGUCUCCUGCCUUGUUUGGAAUUCUCGGGUGCCAA | 2.24
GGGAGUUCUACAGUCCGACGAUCUCUGCAUCCCCCAUCACCUCAUAGAAGACUCUUUGUUGAUCAUUGUAUGUUAAUAAUGUAUAAAAUGGCUAUCUUGUAAGCGUGCUGUCCUGGUACUAGUGUAGCGACUUUGGAAUUCUCGGGUGCCAA | 0.889
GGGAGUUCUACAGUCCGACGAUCAAUUCUGAUUAGAGAUAUAGAUAUUACUGGAAACUAAUUGUUUUUUUUCUAUUGUACUCUGCUUUAUCAAAGAAGUAAAACAUUUAAAUCGUACUACAGAAAUUAAGAUGUGGAAUUCUCGGGUGCCAA | 0.505
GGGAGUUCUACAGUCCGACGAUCAUUUUAUAUGUCUUGGAAAUUUAAUAAUUUAGUGUUCUCAGUAUCAAUUGGUGUUUUUGUUAAACGAAUGAAUCAUCUGUUCAUGCAUGCUCUACUUUGAUAUUAUAACCUGGAAUUCUCGGGUGCCAA | 0.668

Sample 2
Target: Ras GTPase-activating protein-binding protein 1, full length (G3BP1, Homo sapiens, UniProt Q13283)
Chain of UniProt Q13283 (whole entry, looked up): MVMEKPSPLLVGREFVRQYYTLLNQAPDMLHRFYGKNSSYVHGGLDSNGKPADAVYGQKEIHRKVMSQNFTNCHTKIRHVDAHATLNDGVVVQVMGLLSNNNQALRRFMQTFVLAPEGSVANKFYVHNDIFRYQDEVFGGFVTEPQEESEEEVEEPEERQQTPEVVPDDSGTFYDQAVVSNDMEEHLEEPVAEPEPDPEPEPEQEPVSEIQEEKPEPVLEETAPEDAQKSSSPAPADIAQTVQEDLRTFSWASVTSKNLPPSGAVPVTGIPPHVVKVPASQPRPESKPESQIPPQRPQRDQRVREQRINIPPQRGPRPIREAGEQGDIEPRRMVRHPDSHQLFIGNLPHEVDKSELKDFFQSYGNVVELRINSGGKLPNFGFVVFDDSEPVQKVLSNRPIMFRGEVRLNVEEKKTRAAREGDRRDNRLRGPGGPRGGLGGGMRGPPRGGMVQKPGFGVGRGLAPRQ
Method: RNA Bind-n-Seq
Molecule type: RNA
Medium: in vitro
Tested at: 200 nM
Notes: whole 134-nt RNA, ends assumed
With: 150 mM LiCl
Reference: input library
Direction: higher = stronger binding
All molecules: 7-deaza-guanosine replaces G
Sequence | log2 enrichment
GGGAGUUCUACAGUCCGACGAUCUGGGAGGUGGAUUUUGUUUAUUUUUUUAGCUCAUUUCCAGGGGUGGGAAUUUUUUUUUAAUAUGUGUCAUGAAUAAAGUUGCUUUUGAAAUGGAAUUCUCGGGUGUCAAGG | -0.544
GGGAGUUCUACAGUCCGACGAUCACCAUGCAGGUGGGCAUCUUUGGGAAGUGGGGCAAGAGGGGGAUAGGGAGGGGGGUAACACUUUGGGAACAGGUGGUCCCAGGUCGUUUCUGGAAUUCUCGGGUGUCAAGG | 0.312
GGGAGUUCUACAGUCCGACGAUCGUCCUGUGCUACACAUCGUAUGUACCGAAUCGGGAAAAAGGGUUUUUGGGAAAAAGGGAAAGUAUUAUGUUACGCCGUUCGGAUCUGCACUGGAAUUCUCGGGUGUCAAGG | -1.34
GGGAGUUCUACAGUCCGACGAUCACCAUGCAGGUGGGCAUCUUUGGGAAGUGGGGCAAGGGGGGGAUAGGGAGGGGGGUAACACUUUGGGAACAGGUGGUCCCAGGUCGUUUAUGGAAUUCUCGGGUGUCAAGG | 0.121
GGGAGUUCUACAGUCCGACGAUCUCAAGUCCUGUGCUACACAUCGUAUGUACCGAAUCGGGAAGGGGAAGGGAAGGGGAAAGUAUUAUGUUACGCCGUUCGGAUCUGCACUUCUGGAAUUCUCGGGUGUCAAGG | 0.0255
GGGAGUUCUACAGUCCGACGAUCGUCCUGUGCUACACAUCGUAUGUACCGAAUCGGGGAGGGGAAAGGGGAAAAAAAGGGGAAAGUAUUAUGUUACGCCGUUCGGAUCUGCACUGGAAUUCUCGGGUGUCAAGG | 0.712
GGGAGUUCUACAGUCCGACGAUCAGUCCUGUGCUACACAUCGUAUGUACCGAAUCGGGUUUGGGUUUGGGAAAAAAAGGGAAAGUAUUAUGUUACGCCGUUCGGAUCUGCACUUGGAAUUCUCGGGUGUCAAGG | -1.15
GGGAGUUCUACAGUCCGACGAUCCUCAAGUCCUGUGCUACACAUCGUAUGUACCGAAUCGGAAGGAAGGGAAGGGGAAAGUAUUAUGUUACGCCGUUCGGAUCUGCACUUCCAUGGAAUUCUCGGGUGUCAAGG | 0.00842
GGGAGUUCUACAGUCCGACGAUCUCCUGUGCUACACAUCGUAUGUACCGAAUCAAAUUUUUUUAAACCCCCCCAAAUUUAAAAAAGUAUUAUGUUACGCCGUUCGGAUCUGCAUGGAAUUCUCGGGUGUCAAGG | 0.806
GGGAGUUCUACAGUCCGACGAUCGUCCUGUGCUACACAUCGUAUGUACCGAAUCGGGUUUGGGAAAAAAAGGGAAAAAGGGAAAGUAUUAUGUUACGCCGUUCGGAUCUGCACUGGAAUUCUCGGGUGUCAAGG | -0.333
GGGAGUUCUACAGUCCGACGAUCCCUCAAGUCCUGUGCUACACAUCGUAUGUACCGAAUCGGUUUGGUUUGGAGGAAAGUAUUAUGUUACGCCGUUCGGAUCUGCACUUCCAGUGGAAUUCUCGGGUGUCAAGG | -0.184

Sample 3
Target: CCND2, cyclin fold, Cln2 fusion (human)
Method: yeast growth competition, sequencing
Medium: yeast
Notes: weak parent motif
Reference: not given
Direction: higher = stronger binding
Parent: DOT1L docking peptide (human); SEAKRRIVFTITT
Change | normalised enrichment score
I11A | 0.179
K4A | 0.302
R6A | 0.513
T12A | 0.441
V8A | 0.151
F9A | 0.367

Sample 4
Target: UBE2N UBC core domain (UniProt P61088)
Method: yeast two-hybrid
Medium: yeast
Notes: mostly zero background
Reference: not given
Direction: higher = stronger interaction
B1: MKRN1 RING domain (UniProt Q9UHC7); chain FAVQRSKDMVCGICMEVVYEKANPSERRFGILSNCNHTYCLKCIRKWRSAKQFESKIIKSCPECRITSNFVIPSE
B2: DTX4 RING domain (UniProt Q9Y2E6); chain QKVRHPPDEDCTICMERLTAPSGYKGPQPTVKPDLVGKLSRCGHVYHIYCLVAMYNNGNKDGSLQCPTCKTIYGVKTGTQ
B3: TRIML1 RING domain (UniProt Q8N9V2); chain LMENLREELTCFICLDYFSSPVTTECGHSFCLVCLLRSWEEHNTPLSCPECWRTLEGPHFQS
B4: VPS41 RING domain (UniProt P49754); chain KGVLVDEENICESCLSPILPSDAAKPFSVVVFHCRHMFHKECLPMPSMNSAAQFCNICSAKNRGPGSAI
B5: RNF38 RING domain (UniProt Q9H0F5); chain PNNHQSEQTLCVVCMCDFESRQLLRVLPCNHEFHAKCVDKWLKANRTCPICRADASEVHRDS
B6: RC3H1 RING domain (UniProt Q5TC82); chain QAPQWTDFLSCPICTQTFDETIRKPISLGCGHTVCKMCLNKLHRKACPFDQTTINTDIELL
B7: SH3RF2 RING domain (UniProt Q8TEC5); chain DDLTLLDLLECPVCFEKLDVTAKVLPCQHTFCKPCLQRVFKAHKELRCPECRTPVFSNIEAL
B8: TRIM24 RING domain (UniProt O15164); chain EAARLNLLDTCAVCHQNIQSRAPKLLPCLHSFCQRCLPAPQRYLMLPAPMLGSAETPPPVPAPGSPVSGSSPFATQVGVIRCPVCSQECAERHII
B9: TRIM5 RING domain (UniProt Q9C035); chain ILVNVKEEVTCPICLELLTQPLSLDCGHSFCQACLTANHKKSMLDKGESSCPVCRISYQPENIRP
Construct (chain): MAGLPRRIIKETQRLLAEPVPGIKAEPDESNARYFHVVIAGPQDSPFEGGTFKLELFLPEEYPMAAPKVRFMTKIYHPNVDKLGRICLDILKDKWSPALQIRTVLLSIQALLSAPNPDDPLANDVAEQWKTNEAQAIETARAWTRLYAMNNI
Molecule | lacZ reporter activity
B1 (MKRN1 RING domain) | 0
B2 (DTX4 RING domain) | 0
B3 (TRIML1 RING domain) | 0
VEPSEENSKDCVVCQNGTVNWVLLPCRHTCLCDGCVKYFQQCPMCRQFVQESFALC (CGRRF1 RING domain (UniProt Q99675)) | 0
GAAPGPEAAECLVCSELALLVLFSPCQHRTVCEECARRMKKCIRCQVVVSKKLRPD (MIB2 RING domain (UniProt Q96AX9)) | 0
FQGDVDEDLICPICSGVLEEPVQAPHCEHAFCNACITQWFSQQQTCPVDRSVVTVAHLRP (RNF41 RING domain (UniProt Q9H4P4)) | 0
B4 (VPS41 RING domain) | 0
B5 (RNF38 RING domain) | 0
B6 (RC3H1 RING domain) | 0
B7 (SH3RF2 RING domain) | 11500
B8 (TRIM24 RING domain) | 0
DHGAVGQEMCCPICCSEYVKGEVATELPCHHYFHKPCVSIWLQKSGTCPVCRCMFPPPL (PJA1 RING domain (UniProt Q8NG27)) | 0
QVDKAVFHMQSVKCLKCQEQKRAVLPCQHAALCELCAEGSECPICQPGRAHTLQS (UNK RING domain (UniProt Q9C0B0)) | 0
ASLPTSEEDLCPICYAHPISAVFQPCGHKSCKACINQHLMNNKDCFFCKTTIVSVEDWE (RNF123 RING domain (UniProt Q5XPI4)) | 0
B9 (TRIM5 RING domain) | 0

Sample 5
Target: ABI1, truncated, D143A, DHFR fusion (Arabidopsis thaliana)
Method: DHFR PCA, deep sequencing
Medium: yeast
Notes: methotrexate growth selection, single substitutions
With: (+)-ABA 0.032 µM
Reference: wild-type fitted maximum
Direction: higher = stronger binding
Parent: PYL1, truncated, DHFR fusion (Arabidopsis thaliana); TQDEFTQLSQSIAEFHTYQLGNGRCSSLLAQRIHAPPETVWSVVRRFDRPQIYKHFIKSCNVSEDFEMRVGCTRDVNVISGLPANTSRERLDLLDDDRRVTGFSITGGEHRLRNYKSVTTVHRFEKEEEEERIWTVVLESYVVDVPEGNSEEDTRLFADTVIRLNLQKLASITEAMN
Change | relative binding score
E14V | 2.93%
S42Q | 27.6%
C60W | -1%
E139H | 3.39%
L138P | -0.306%
S104L | -2.95%
S9Y | 23%
E127A | 41.5%
R69A | 16.7%
Y115M | 2.61%
S9H | 40.8%
F103T | 1.9%
T86L | 13.7%

Sample 6
Target: Sal-like protein 4, full length isoform B (SALL4, Homo sapiens, UniProt Q9UJQ4-2, residues 1-616)
Method: universal PBM
Molecule type: double-stranded DNA, one strand shown
Medium: in vitro
Tested at: not given
Notes: 8-mer, flanks averaged, mean of replicates
Direction: higher = stronger binding
Sequence | E-score
TATGTACA | 0.315
ATGAGTCA | 0.154
AATGGCAA | 0.156
GACATCAC | -0.0105
CGTTATTC | 0.122
AAATTCAA | 0.343
AGCGGTGC | -0.127
CATTCCCA | 0.0774
GCCGTAGA | -0.171
TAATCCTA | 0.16
CTCAAAAA | 0.154
AACCCAGC | -0.185
AATCCGGG | -0.307
AGTGTTAC | 0.144
GGGAGGAA | -0.108
CGGCCAGC | -0.219

Some of these lines once more (sample 3):
Change | normalised enrichment score
T12A | 0.441
I11A | 0.179
F9A | 0.367
V8A | 0.151
R6A | 0.513
